{"data": "Published values collected from several papers", "note": "Numbered parts are unrelated; each lists some results of a single study. Changes are numbered by the printed parent chain."}
{"data": "Series 1", "target": "Fragile X messenger ribonucleoprotein 1, C-terminal low-complexity region (Fmr1, Mus musculus, UniProt P35922)", "method": "RNA Bind-n-Seq", "molecule type": "RNA", "matrix": "in vitro", "tested at": "200 nM", "notes": "whole 134-nt RNA, ends assumed", "added": "150 mM KCl", "reference": "input library", "direction": "higher = stronger binding", "shared flanks, not repeated": "GGGAGUUCUACAGUCCGACGAUC … UGGAAUUCUCGGGUGUCAAGG"}
{"Sequence": "UGGCCCUGGUGGCAUGCGGGGAGGAAGAGGUGGCCUCAUGGAUCGUGGUGGUCCCGGUGGAAUGUUUAGAGGUGGCCGUGGUGGAGACAG", "log2 enrichment": 0.178}
{"Sequence": "GUCCUGUGCUACACAUCGUAUGUACCGAAUCGGCCCCCCGGCCCCCCGGGCCCCCCGGAAAGUAUUAUGUUACGCCGUUCGGAUCUGCAC", "log2 enrichment": 0.109}
{"Sequence": "UGCUGGCAGCCAAGCAGCAGCAGGAGAUGCUGGCAGCCAAGCGGCAGCAGGAGCUGGAGCAGCAGCGGCAGCGGGAGCAGCAGCGGCAGG", "log2 enrichment": -0.483}
{"Sequence": "CAAGUCCUGUGCUACACAUCGUAUGUACCGAAUCGGGAAAAAGGGUUUGGGUGGGAAAGUAUUAUGUUACGCCGUUCGGAUCUGCACUUC", "log2 enrichment": 1.25}
{"Sequence": "GUCCUGUGCUACACAUCGUAUGUACCGAAUCGGGGAAAAAGGGGAAAAAGGAAAAAGGAAAGUAUUAUGUUACGCCGUUCGGAUCUGCAC", "log2 enrichment": -0.211}
{"Sequence": "AGUCCUGUGCUACACAUCGUAUGUACCGAAUCGGGGUGGGGAAAAAAAGGGGAGGGGAAAGUAUUAUGUUACGCCGUUCGGAUCUGCACU", "log2 enrichment": 0.93}
{"Sequence": "CCUGUGCUACACAUCGUAUGUACCGAAUCGGUUUUUUUGGGUUUUUUUGGGGUUUUUUUGGAAAGUAUUAUGUUACGCCGUUCGGAUCUG", "log2 enrichment": -0.856}
{"Sequence": "GUCCUGUGCUACACAUCGUAUGUACCGAAUCGGGGUUUUUUUGGGGUUUGGGGUGGGGAAAGUAUUAUGUUACGCCGUUCGGAUCUGCAC", "log2 enrichment": 0.524}
{"Sequence": "UAACUUUAGAGGAGGAUCUGAUGGAUAUGGCAGUGGACGUGGAUUUGGGGAUGGCUAUAAUGGGUAAGGAGGAGGACCUGGAGGUGGCAA", "log2 enrichment": 0.331}
{"Sequence": "UGGCCCUGGUGGCAUGCGGGGAGGAAGAGGUGGCCUCAUGGAUCGUGGUGGUCCCGGUGGAAUGUUCAGAGGUGGCCGUGGUGGAGACCG", "log2 enrichment": -0.0919}
{"Sequence": "AGUCCUGUGCUACACAUCGUAUGUACCGAAUCGGGUUUUUGGUUUUUGGGUUUUUGGAAAGUAUUAUGUUACGCCGUUCGGAUCUGCACU", "log2 enrichment": -0.584}
{"data": "Series 2", "target": "CRIPT, C-terminal peptide", "method": "DHFR complementation, deep sequencing", "matrix": "yeast", "notes": "single substitutions, model-inferred values", "reference": "wild type", "direction": "higher = weaker binding", "starting sequence": "ERBIN, PDZ domain 1 (human); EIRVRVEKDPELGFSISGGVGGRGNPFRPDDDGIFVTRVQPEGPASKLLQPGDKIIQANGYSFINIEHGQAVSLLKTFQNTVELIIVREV; partner TKNYKQTSV"}
{"Variant": "I2S", "binding free energy change [kcal/mol]": 0.258}
{"Variant": "V20N", "binding free energy change [kcal/mol]": 0.297}
{"Variant": "I64M", "binding free energy change [kcal/mol]": 0.0475}
{"Variant": "N25S", "binding free energy change [kcal/mol]": 0.758}
{"Variant": "P51W", "binding free energy change [kcal/mol]": 0.363}
{"Variant": "Q70C", "binding free energy change [kcal/mol]": 0.0086}
{"Variant": "H68Q", "binding free energy change [kcal/mol]": 1.13}
{"Variant": "A58M", "binding free energy change [kcal/mol]": 0.913}
{"Variant": "Q57D", "binding free energy change [kcal/mol]": -0.00167}
{"Variant": "N25D", "binding free energy change [kcal/mol]": 0.657}
{"Variant": "D31I", "binding free energy change [kcal/mol]": 1.11}
{"Variant": "E67T", "binding free energy change [kcal/mol]": -0.0808}
{"Variant": "V4M", "binding free energy change [kcal/mol]": 0.0863}
{"Variant": "V4C", "binding free energy change [kcal/mol]": 0.19}
{"data": "Series 3", "target": "CCNB2, cyclin fold, Cln2 fusion (human)", "method": "yeast growth competition, sequencing", "matrix": "yeast", "notes": "weak parent motif", "reference": "not given", "direction": "higher = stronger binding", "starting sequence": "RB1 docking peptide (human); PKPLKKLRFDIEG"}
{"Variant": "PKPLKKLRFEIEG [D10E]", "normalised enrichment score": -0.409}
{"Variant": "PKPLKKYRFDIEG [L7Y]", "normalised enrichment score": 0.0623}
{"Variant": "PKKLKKLRFDIEG [P3K]", "normalised enrichment score": 0.451}
{"Variant": "PCPLKKLRFDIEG [K2C]", "normalised enrichment score": 0.475}
{"Variant": "PKPLKYLRFDIEG [K6Y]", "normalised enrichment score": 0.164}
{"Variant": "PKPLEKLRFDIEG [K5E]", "normalised enrichment score": -0.285}
{"Variant": "PKPLKKLTFDIEG [R8T]", "normalised enrichment score": 0.276}
{"Variant": "PKPLKKLRFDIEY [G13Y]", "normalised enrichment score": -0.146}
{"Variant": "PKPLKKLCFDIEG [R8C]", "normalised enrichment score": -0.292}
{"Variant": "PKPLKKLLFDIEG [R8L]", "normalised enrichment score": -0.025}
{"Variant": "PIPLKKLRFDIEG [K2I]", "normalised enrichment score": 0.597}
{"Variant": "PKPLKKLRFDIFG [E12F]", "normalised enrichment score": 1.08}
{"Variant": "PKPLKKLRFDIER [G13R]", "normalised enrichment score": 0.982}
{"Variant": "PKALKKLRFDIEG [P3A]", "normalised enrichment score": 0.607}
{"Variant": "PKHLKKLRFDIEG [P3H]", "normalised enrichment score": -0.317}
{"Variant": "PKPDKKLRFDIEG [L4D]", "normalised enrichment score": 1.16}
{"Variant": "PKPLKKLRFDVEG [I11V]", "normalised enrichment score": 0.0837}
{"Variant": "QKPLKKLRFDIEG [P1Q]", "normalised enrichment score": 0.637}
{"Variant": "PAPLKKLRFDIEG [K2A]", "normalised enrichment score": 0.289}
{"Variant": "PKPLKKLDFDIEG [R8D]", "normalised enrichment score": 0.194}
{"data": "Single results of other studies"}
{"Substance": "PhoQ, residues 284 288 289 292 302 303 QWQEDG", "target": "PhoP, residues 12 14 15 18 19 LFHKL (Escherichia coli, UniProt P23836)", "assay": "Sort-seq, refers to: YFP reporter", "test system": "E. coli", "conditions": "PhoQ-PhoP variant library, added: 10 µM Mg2+", "scale": "reference: high Mg2+ state, higher = stronger signaling", "quantity": "fold induction", "result": 8.92}
{"note": "Excerpt of the above (series 3):"}
{"Variant": "PKPLKKYRFDIEG [L7Y]", "normalised enrichment score": 0.0623}
{"Variant": "PKPLKKLRFDIEY [G13Y]", "normalised enrichment score": -0.146}
{"Variant": "PKPLKKLRFDIER [G13R]", "normalised enrichment score": 0.982}
